Assay results of several laboratories.
Parts stem from different laboratories: compare values within a part only.

Study 1 — technique: competition protein-binding microarray; form: double-stranded DNA, one strand shown; matrix: in vitro; concentration: 2 µM; together with: Cbf1 competitor, 0.05 µM; reading: higher = stronger binding; all sequences stand within: … GTCTTGATTCGCTTGACGCTGCTG
Target: Phosphate system positive regulatory protein PHO4, full length, GST-tagged (PHO4, Saccharomyces cerevisiae, UniProt P07270, residues 1-312)
Notes: whole 60-bp probe, lowest competitor level
Residues (chain): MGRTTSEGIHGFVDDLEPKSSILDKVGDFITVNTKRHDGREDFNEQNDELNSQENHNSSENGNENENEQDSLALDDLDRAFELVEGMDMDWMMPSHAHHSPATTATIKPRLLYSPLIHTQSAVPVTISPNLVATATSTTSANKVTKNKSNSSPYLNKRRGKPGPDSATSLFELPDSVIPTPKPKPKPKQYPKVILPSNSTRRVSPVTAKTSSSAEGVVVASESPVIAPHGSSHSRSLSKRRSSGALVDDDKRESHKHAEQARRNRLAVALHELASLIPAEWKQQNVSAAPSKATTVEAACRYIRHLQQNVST
Sequence	fluorescence intensity [a.u.]
TGTGGGTAATTAGATAATTGTTGGGATTCCATTGTT	2920
AAAGCGGTAATTTGTCTGGTGGGTGCAGATATCTAT	4020
GGTCTCCTCGGTGAAAGCGTGATGGGATAGCCGTTA	6120
GTCTTGTCTCATTGTACGGTGGGTGTCCCCACTTCA	4870
AGGAACCTCAATCGGCACGGCCAACTCGCAAGCGCA	4360
CGGGGTTAAGTTTGCGTCGTGGGTGGCTTGCAGCAG	7660
CTGCATAGGTGGTTACACGGGGATGGTTTTTCTCTT	7950

Study 2 — technique: protein binding microarray; form: double-stranded DNA, one strand shown; matrix: in vitro; concentration: not given; baseline: not given; reading: higher = stronger binding
Target: Histone acetyltransferase KAT6A, winged helix 1, GST fusion (KAT6A, Homo sapiens, UniProt Q92794, residues 1-85)
Notes: 8-mer, flanks averaged, mean of 2 arrays, mostly near background
Residues (chain): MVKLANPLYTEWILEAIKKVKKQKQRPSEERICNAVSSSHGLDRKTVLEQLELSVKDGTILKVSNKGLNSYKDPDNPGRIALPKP
Sequence	E-score
AGATAAGC	-0.083
ATGACTAC	-0.12
GTCAGGAA	-0.128
ATAACGTC	-0.101
CGGAAGGA	0.043
GCTGAATA	-0.106

Study 3 — technique: protein-binding microarray; form: double-stranded DNA, one strand shown; matrix: in vitro; concentration: 940 nM top; notes: 60-bp whole probe; together with: salmon DNA 0.4 mg/ml; baseline: random background probes; reading: higher = stronger binding; all sequences stand within: GCCTAGCAC … GTCTTGATTCGCTTGACGCTGCTG
Target: Interferon regulatory factor 5, full length, phosphomimetic (IRF5, Homo sapiens, UniProt Q13568-2, residues 1-514, S451D/S453D/S456D/S462D)
Sequence	fitted relative affinity [z-score]
TTAGATTTCGGGTATCGATTTGTGCTA	3.7
CTGCCTGGCCAAGCCCAGATGTGCTAG	-0.00282
GACAGTTTCGACACTGGGGACGTGCTA	8.86
CTTTCTATGTCTGTTTTTGCGTGCTAG	1.81
TTAGAACTGGGGTTTCGATCAGTGCTA	4.73

Single results of other studies
Molecule	target	test	system	setting	how to read	endpoint	value
PhoQ, residues 284 288 289 292 302 303 SSYNSA	PhoP, residues 12 14 15 18 19 NFCKL (Escherichia coli, UniProt P23836)	Sort-seq, item: YFP reporter	E. coli	PhoQ-PhoP variant library, together with: 10 µM Mg2+	baseline: high Mg2+ state, higher = stronger signaling	fold induction	1.08
